Assay results of several laboratories.
Lines come from different studies, so protocols differ. pIC50: −log10 of the molar value.
PFF0160c: Dihydroorotate dehydrogenase (quinone), mitochondrial (PFF0160c, Plasmodium falciparum, UniProt Q08210)
Sequence of UniProt Q08210 (whole entry, looked up): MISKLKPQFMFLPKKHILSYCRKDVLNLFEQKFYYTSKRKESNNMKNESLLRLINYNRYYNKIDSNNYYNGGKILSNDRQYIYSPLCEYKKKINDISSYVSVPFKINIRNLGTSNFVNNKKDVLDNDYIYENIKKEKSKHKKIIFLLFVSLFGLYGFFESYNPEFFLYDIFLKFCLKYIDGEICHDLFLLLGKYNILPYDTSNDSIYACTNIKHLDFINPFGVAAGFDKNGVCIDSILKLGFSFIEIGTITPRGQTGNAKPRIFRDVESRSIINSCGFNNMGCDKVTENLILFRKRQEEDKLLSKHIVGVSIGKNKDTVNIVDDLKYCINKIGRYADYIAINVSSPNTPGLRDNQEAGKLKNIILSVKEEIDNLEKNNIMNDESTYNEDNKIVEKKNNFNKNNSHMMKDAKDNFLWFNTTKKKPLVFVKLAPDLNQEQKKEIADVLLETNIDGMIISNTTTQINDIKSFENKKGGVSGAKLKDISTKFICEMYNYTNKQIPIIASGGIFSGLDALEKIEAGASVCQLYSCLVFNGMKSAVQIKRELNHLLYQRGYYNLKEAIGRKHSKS
TMPRSS2: Transmembrane protease serine 2 (TMPRSS2, Homo sapiens, UniProt O15393)
Sequence of UniProt O15393 (whole entry, looked up): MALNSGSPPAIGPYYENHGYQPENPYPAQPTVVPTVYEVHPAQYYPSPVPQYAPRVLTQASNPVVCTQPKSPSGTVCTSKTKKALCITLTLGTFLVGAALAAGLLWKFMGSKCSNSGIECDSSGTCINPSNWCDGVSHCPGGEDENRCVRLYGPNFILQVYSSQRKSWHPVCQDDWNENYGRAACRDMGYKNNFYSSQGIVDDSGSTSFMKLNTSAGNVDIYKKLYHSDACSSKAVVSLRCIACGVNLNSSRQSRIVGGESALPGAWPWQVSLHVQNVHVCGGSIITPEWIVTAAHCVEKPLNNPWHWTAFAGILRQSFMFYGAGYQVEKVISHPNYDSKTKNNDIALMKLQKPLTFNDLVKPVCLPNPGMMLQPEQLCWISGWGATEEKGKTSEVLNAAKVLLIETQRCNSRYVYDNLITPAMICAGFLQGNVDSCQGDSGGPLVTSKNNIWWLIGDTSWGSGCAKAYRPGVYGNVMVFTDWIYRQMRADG
Sequence of UniProt Q8TD19 (whole entry, looked up): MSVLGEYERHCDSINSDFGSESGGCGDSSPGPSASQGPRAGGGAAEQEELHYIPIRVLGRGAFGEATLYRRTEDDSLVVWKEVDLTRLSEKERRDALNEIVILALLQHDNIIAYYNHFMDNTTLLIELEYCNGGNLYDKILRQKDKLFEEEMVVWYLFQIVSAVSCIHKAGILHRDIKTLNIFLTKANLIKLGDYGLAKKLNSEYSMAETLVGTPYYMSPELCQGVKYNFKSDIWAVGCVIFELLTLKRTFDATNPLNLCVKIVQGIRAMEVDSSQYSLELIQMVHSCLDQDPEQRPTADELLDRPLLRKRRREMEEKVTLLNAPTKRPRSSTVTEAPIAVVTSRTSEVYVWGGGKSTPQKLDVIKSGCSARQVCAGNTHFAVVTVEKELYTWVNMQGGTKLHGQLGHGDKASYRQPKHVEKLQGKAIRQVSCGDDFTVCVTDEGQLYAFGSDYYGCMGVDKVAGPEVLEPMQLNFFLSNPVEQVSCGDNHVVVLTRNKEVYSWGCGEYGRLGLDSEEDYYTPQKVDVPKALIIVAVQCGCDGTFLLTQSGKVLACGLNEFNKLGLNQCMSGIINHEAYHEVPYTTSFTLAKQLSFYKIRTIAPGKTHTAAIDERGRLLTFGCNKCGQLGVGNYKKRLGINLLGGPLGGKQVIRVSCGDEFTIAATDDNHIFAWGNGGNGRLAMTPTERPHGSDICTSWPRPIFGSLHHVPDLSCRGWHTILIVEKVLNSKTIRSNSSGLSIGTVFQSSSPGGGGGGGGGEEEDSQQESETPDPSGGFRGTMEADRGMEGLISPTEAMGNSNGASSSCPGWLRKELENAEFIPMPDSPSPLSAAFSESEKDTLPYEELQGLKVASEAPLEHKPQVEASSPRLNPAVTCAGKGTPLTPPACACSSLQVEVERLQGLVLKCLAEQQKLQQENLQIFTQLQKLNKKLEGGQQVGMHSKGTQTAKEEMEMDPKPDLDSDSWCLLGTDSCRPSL
Sequence of UniProt O43683 (whole entry, looked up): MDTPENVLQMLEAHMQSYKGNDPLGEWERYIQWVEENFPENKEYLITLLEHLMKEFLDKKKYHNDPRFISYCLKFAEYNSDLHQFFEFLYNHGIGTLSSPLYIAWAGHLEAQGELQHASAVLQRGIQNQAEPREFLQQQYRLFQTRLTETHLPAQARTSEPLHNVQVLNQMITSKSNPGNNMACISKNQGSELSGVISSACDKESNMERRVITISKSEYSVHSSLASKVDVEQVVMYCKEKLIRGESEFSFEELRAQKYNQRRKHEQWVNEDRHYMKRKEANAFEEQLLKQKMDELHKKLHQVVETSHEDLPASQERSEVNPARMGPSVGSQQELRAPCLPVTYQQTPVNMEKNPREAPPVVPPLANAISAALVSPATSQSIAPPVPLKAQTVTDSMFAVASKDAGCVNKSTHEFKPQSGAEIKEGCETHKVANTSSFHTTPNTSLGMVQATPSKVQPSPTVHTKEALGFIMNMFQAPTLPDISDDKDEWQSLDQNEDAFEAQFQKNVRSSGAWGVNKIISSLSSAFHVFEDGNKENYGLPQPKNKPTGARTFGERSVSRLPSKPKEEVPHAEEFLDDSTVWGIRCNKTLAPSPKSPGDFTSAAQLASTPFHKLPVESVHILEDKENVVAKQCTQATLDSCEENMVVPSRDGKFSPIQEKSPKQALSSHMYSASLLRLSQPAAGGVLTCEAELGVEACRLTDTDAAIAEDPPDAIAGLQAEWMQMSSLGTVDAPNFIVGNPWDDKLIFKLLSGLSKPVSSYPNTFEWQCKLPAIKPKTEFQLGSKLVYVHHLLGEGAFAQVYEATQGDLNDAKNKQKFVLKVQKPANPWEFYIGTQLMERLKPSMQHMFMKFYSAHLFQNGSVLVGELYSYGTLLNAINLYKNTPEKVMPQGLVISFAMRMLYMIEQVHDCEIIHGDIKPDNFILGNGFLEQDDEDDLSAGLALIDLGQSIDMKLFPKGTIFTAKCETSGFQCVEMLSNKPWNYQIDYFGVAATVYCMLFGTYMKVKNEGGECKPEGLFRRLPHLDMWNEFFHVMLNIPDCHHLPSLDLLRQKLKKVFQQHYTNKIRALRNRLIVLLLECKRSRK
Sequence of UniProt Q15418 (whole entry, looked up): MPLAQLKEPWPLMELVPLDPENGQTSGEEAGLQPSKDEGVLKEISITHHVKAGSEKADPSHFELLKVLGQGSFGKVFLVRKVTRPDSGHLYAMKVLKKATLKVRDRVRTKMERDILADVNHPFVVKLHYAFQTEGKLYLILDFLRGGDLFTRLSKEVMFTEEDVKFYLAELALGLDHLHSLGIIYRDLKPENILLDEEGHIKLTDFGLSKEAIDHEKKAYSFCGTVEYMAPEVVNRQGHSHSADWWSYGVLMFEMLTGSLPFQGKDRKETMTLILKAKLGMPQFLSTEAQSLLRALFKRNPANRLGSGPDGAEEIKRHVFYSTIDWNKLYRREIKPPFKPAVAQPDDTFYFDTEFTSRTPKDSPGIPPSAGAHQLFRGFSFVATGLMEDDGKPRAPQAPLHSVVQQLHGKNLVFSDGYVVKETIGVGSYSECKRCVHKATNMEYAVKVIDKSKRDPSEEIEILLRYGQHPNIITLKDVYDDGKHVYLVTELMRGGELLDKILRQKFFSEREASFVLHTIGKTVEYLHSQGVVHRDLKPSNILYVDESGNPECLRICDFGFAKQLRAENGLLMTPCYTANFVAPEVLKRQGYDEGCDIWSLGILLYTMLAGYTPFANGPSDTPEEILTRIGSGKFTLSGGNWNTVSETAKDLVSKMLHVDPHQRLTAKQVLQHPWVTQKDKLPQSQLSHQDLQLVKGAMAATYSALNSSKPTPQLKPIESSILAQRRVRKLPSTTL
Sequence of UniProt P41594 (whole entry, looked up): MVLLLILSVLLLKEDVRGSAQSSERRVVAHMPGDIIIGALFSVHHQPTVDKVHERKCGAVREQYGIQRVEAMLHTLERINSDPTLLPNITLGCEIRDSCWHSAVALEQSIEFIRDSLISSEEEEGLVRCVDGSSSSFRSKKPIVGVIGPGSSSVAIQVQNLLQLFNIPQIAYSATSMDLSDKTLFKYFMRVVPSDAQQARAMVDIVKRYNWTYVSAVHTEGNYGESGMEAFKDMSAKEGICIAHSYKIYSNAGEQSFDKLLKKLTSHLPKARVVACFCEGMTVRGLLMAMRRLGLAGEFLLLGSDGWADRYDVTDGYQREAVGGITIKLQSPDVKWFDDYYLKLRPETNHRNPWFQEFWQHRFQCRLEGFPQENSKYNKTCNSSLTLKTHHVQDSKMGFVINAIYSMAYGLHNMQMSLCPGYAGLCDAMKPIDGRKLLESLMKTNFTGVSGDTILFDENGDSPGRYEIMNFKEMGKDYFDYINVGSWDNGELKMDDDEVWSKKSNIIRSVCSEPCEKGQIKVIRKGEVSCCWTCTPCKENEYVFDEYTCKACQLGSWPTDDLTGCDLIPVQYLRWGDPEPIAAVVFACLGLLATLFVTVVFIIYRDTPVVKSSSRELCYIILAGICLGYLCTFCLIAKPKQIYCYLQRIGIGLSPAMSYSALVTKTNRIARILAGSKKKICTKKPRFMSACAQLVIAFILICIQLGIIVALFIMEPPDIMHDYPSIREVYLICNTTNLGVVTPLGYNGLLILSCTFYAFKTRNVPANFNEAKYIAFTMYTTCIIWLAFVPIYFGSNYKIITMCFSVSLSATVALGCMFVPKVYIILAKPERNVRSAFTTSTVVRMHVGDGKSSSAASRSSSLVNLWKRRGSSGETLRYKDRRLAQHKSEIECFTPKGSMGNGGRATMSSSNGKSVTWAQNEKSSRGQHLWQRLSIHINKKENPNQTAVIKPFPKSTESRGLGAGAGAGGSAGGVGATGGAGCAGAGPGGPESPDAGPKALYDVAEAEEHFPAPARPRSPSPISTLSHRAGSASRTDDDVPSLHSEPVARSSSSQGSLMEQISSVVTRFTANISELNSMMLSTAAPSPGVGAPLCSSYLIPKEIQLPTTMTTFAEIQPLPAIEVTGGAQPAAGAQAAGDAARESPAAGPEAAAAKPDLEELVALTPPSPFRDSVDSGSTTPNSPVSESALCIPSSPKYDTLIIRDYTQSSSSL

SMILES | target | observed | mode | method | tested at | endpoint | result
Cc1nn(C)cc1-c1nc2c(N3CCN(Cc4ccc(Cl)cc4)CC3)c(Cl)cnc2[nH]1 | RIPK4 (Homo sapiens, UniProt P57078) | binding | – | competition with immobilised ligand | 1 µM | remaining binding | 74%
CC(C)CC(=O)OC[C@H]1O[C@@](C#N)(c2ccc3c(N)ncnn23)[C@H](O)[C@@H]1O | GRM5 (Homo sapiens, UniProt P41594) | cell-free assay | – | – | 20 µM | inhibition | 15%
CCCn1c(O)nnc1SCC(=O)Nc1cc(Cl)ccc1Cl | PFF0160c | enzyme activity | inhibitor | absorbance | – | pIC50 | 5.82
CC(C)[C@H](NC(=O)[C@H](CCc1ccccc1)NC(=O)CCc1ccc2ccccc2c1)C(=O)N[C@@H](CCCNC(=N)N)C(=O)c1nc2ccccc2s1 | TMPRSS2 | enzyme activity | inhibitor | – | 1 nM | activity vs control | 84%
[2H]c1c([2H])c([C@]2([2H])CCCN2C(=O)C(C)(C)Oc2ccc3cn[nH]c3c2)c([2H])c([2H])c1C([2H])([2H])[2H] | NEK9 (Homo sapiens, UniProt Q8TD19) | binding | – | competition with immobilised ligand | 1 µM | remaining binding | 78%
CS(=O)(=O)N[C@@H](CCC(N)=O)C(=O)N[C@@H](Cc1ccccc1)C(=O)N[C@@H](CCCNC(=N)N)C(=O)c1nccs1 | TMPRSS2 | enzyme activity | inhibitor | – | 1 nM | activity vs control | 87%
Nc1ncc(-c2nc(N3CCOCC3)nc(N3CCOCC3)n2)c(C(F)F)n1 | ERN1 (Homo sapiens, UniProt O75460) | cell-free assay | – | competition with immobilised ligand | 10 µM | remaining binding | 80%
COc1ncccc1-c1cnn2ccc(N3CCN(C(=O)OC(C)C)CC3)nc12 | BUB1 (Homo sapiens, UniProt O43683) | binding | – | competition with immobilised ligand | 1 µM | remaining binding | 74%
CC(=O)N[C@@H](CCC(N)=O)C(=O)N[C@@H](Cc1ccccc1)C(=O)N[C@@H](CCCNC(=N)N)C(=O)c1nc2ccccc2s1 | TMPRSS2 | enzyme activity | inhibitor | – | 1 nM | activity vs control | 22%
Cc1noc(-c2cccs2)c1C(=O)NC(C)c1cccc2ccccc12 (centres unmarked) | PFF0160c | enzyme activity | inhibitor | absorbance | – | pIC50 | 6.37
C#Cc1n[nH]c2c(-c3cn(C(C)c4ccccn4)c(=O)[nH]c3=O)cc(F)cc12 (centres unmarked) | RPS6KA1 (Homo sapiens, UniProt Q15418) | enzyme activity | inhibitor | – | 1 µM | inhibition | 8.5%

For quick reference, copied from above:
SMILES | target | observed | mode | method | tested at | endpoint | result
C#Cc1n[nH]c2c(-c3cn(C(C)c4ccccn4)c(=O)[nH]c3=O)cc(F)cc12 (centres unmarked) | RPS6KA1 (Homo sapiens, UniProt Q15418) | enzyme activity | inhibitor | – | 1 µM | inhibition | 8.5%
